# Published values gathered from unrelated publications.
# A part holds a random share of what one study measured.

# Study 1 — technique: competition protein-binding microarray; form: double-stranded DNA, one strand shown; sample: in vitro; tested at: 2 µM; together with: Cbf1 competitor, 0.05 µM; direction: higher = stronger binding
# Target: Phosphate system positive regulatory protein PHO4, full length, GST-tagged (PHO4, Saccharomyces cerevisiae, UniProt P07270, residues 1-312)
# Setting: whole 60-bp probe, lowest competitor level
# Target sequence (chain): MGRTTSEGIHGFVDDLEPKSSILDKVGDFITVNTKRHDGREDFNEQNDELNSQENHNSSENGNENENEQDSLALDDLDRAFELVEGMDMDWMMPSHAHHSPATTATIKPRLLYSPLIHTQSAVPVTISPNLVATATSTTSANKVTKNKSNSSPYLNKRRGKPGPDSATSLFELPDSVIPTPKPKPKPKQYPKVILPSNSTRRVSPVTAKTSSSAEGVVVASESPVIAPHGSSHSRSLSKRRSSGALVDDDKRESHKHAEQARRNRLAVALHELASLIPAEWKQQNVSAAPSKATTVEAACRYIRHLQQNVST
Oligonucleotide,fluorescence intensity
CTAACGAAGGTTTGTTGAGTGGGTGACAAGCCAAGTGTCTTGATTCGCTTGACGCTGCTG,4080 a.u.
TCATCACCAGAAAGTGACATGACAAGAGATTCTGGTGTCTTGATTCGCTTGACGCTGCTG,4110 a.u.
CGCAGCCTCTACCGTCACGTGTAACAGTACGGCAGGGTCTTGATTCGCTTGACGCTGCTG,13300 a.u.
TGCGCAACAACTTGTTTCGTGGGTGTATGTCTAGAAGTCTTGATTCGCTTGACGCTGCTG,5450 a.u.
TCACCAGACAAATATCACCTGGAACCACATCTTTTGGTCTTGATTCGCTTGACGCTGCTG,3610 a.u.
CGCCGTTCAGGGGTCCATGTGCCTTGGACGATATTAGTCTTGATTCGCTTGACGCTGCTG,9920 a.u.
TAGGAAGAACCGGTTCTCGTGGTGATGTCCCCCAAGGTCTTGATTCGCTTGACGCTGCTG,6790 a.u.
TGAACTTGGACAAACCTCGTGGTGAAATTTAAAAATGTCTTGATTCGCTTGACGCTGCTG,10400 a.u.
ATCCCATTGGGTAAAAACGTGGTCGTCAAATGGCAAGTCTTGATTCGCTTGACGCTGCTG,13900 a.u.
CTTCTGTAAATTTGCTTAGTGGGTGGACGCGCCCCGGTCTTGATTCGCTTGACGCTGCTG,3870 a.u.
CGGGGTTAAGTTTGTCCTGTGGGTGGCTTGCAGCAGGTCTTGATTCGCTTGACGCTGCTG,5660 a.u.
CCTCGTCTGCTCTTCCACGTTCAGATGTTCCCTTGAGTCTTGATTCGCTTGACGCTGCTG,8820 a.u.

# Study 2 — technique: universal PBM; form: double-stranded DNA, one strand shown; sample: in vitro; tested at: 600 nM; direction: higher = stronger binding
# Target: Sal-like protein 4, full length isoform A (SALL4, Homo sapiens, UniProt Q9UJQ4, residues 1-1053)
# Chain of UniProt Q9UJQ4 (whole entry, looked up): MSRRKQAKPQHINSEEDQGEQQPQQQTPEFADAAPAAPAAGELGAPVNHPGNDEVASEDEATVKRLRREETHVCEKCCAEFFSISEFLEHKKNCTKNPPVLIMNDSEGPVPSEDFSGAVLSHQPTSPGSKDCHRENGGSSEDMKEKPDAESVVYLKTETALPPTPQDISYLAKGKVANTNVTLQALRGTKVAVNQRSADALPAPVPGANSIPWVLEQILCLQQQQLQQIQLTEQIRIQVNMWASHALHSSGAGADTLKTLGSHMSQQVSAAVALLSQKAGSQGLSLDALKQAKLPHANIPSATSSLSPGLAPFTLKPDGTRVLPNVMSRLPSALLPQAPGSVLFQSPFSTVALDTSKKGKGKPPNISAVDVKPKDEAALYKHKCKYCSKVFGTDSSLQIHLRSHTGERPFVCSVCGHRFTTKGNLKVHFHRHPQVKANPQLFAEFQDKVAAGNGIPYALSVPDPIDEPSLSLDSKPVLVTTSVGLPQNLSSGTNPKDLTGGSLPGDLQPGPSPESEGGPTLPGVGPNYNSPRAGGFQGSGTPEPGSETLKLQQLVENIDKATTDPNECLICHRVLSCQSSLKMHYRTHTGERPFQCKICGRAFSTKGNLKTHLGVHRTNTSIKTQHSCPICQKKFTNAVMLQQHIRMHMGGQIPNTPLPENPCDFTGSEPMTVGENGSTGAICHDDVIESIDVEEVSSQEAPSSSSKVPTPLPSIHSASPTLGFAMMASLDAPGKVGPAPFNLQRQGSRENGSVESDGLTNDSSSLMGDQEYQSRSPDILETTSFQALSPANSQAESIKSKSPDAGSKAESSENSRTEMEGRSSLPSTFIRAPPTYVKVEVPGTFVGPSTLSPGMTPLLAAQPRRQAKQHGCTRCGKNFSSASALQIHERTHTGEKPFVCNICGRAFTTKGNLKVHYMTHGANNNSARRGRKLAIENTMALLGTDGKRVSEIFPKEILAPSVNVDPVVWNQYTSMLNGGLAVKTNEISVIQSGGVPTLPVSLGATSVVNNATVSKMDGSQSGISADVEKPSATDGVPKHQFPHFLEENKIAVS
# Setting: 8-mer, flanks averaged, mean of replicates
Oligonucleotide,E-score
GTGTGAGA,0.0442
GCGGGTCC,-0.409
CTTGATTA,0.154
CCAAGGCG,-0.237
ATCGCATC,-0.117
CCACCTCC,-0.135
ATTGGCTG,-0.0426
CCGTTTTC,-0.17
TATGCTGA,0.188
AAACAGCA,0.12
GAGACAGA,0.0454
GCCCTCGA,-0.16
AGGACTAG,-0.0132
CAAGAATA,0.299
CAGGTACG,-0.203
AGCTTTGA,0.137
GGCGGCCA,-0.282
AATGCGTA,0.192
CCAAGCGC,-0.172
GGGCGTTA,-0.0552
ACGCTAGC,-0.246
CTCAGGAC,-0.112
AACTTGAC,0.0592
AATCTCCT,0.0345
CAAGGGAA,0.121

# Study 3 — technique: RNA Bind-n-Seq; form: RNA; sample: in vitro; tested at: 200 nM; setting: whole 134-nt RNA, ends assumed; together with: 150 mM LiCl; relative to: input library; direction: higher = stronger binding; all molecules: 7-deaza-guanosine replaces G
# Target: Fragile X messenger ribonucleoprotein 1, C-terminal low-complexity region (Fmr1, Mus musculus, UniProt P35922)
Oligonucleotide,log2 enrichment
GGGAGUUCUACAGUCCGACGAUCUUCUCCUGCCCCGAAGCUCGCUGUGCGUGUGCGUGUGUGUGUCCCUCCGCCAACGCCGCCACCUCAGCCCGGCAAAUGAACUCCGUCCGAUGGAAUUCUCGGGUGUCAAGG,1.65
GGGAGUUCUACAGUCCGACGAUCAUUAUAGACUUGAUCAAAACACAGGAAAAGGCAACUCCCAGGAACUUUCCGCCACGAUUCCAGGAUGGAUAUUACAGCUGACAGCUUUUCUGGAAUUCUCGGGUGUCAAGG,-0.687
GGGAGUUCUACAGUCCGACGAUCUCCUGUGCUACACAUCGUAUGUACCGAAUCGGGCCCCCCGGGCCCCCCGGGCCCCCCGGGAAAGUAUUAUGUUACGCCGUUCGGAUCUGCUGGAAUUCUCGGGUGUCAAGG,-1.02
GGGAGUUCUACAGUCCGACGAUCUGGCCCUGGUGGCAUGCGGGGAGGAAGAGGUGGCCUCAUGGAUCGUAGUGGUCCCGGUGGAAUGUUCAGAGGUGGCCGUGGUGGAGACAGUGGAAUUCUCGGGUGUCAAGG,0.0959
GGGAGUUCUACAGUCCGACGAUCAGUCCUGUGCUACACAUCGUAUGUACCGAAUCAAAUUUUUAAACCCAAAUUUUUAAAAAAGUAUUAUGUUACGCCGUUCGGAUCUGCACUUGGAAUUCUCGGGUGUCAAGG,-2.54
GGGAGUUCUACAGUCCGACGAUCGGGUCUGUUGCAAAUAAAUUCUAUGUUCACAAUGAUAUCUUCAGAUACCAAGAUGAGGUCUUUGGUGGGUUUGUCACUGAGCCUCAGGAGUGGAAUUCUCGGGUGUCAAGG,-0.807
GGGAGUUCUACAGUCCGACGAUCCUGUGCUACACAUCGUAUGUACCGAAUCGGCCCCCCCGGGGCCCCCCCGGGGCCCCCCCGGAAAGUAUUAUGUUACGCCGUUCGGAUCUGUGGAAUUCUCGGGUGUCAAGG,-1.22
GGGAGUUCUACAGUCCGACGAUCCAAGUCCUGUGCUACACAUCGUAUGUACCGAAUCGGGGAAAGGGGAGGGGUGGGGAAAGUAUUAUGUUACGCCGUUCGGAUCUGCACUUCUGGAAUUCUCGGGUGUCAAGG,0.322
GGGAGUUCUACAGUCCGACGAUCCCUGUGCUACACAUCGUAUGUACCGAAUCGGAAAAAAGGGGAAAAAAGGGAAAAAAGGGGAAAGUAUUAUGUUACGCCGUUCGGAUCUGCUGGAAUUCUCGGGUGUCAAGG,-0.228
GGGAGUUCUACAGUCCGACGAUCUGGGAGGUGGAUUUUGUUUAUUUUUUUAGCUCAUUUCCAGGGGUGGGAAUUUUUUUUUAAUAUGUGUCAUGAUUAAAGUUGUUUUUGAAAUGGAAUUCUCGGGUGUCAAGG,0.0567
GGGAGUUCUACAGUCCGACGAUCUCCUGUGCUACACAUCGUAUGUACCGAAUCGGGAAAGGGAAAAAAAGGGUUUUUUUGGGAAAGUAUUAUGUUACGCCGUUCGGAUCUGCAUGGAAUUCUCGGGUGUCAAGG,-1.28

# Study 4 — technique: RNA Bind-n-Seq; form: RNA; sample: in vitro; tested at: not given; relative to: input RNA pool; direction: higher = stronger binding
# Target: RING finger protein unkempt homolog, zinc fingers 1-6, GST-SBP tag (UNK, Homo sapiens, UniProt Q9C0B0, residues 30-357)
# Chain of UniProt Q9C0B0 (30-357, looked up): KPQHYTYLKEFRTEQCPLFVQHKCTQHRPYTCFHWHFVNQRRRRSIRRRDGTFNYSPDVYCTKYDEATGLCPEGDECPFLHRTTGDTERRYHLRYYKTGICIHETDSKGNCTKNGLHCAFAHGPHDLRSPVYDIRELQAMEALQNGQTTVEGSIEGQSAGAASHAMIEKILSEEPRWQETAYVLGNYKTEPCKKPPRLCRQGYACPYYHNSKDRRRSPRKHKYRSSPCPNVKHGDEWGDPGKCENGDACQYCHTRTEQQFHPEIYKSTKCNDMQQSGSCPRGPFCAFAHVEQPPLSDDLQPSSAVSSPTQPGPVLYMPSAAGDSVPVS
# Setting: RNA with constant flanks, human and mouse sites, ends assumed
Oligonucleotide,bound/input enrichment [ratio]
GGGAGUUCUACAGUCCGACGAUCGAUAUAGACGGGGGCUUCGUGCACUCGGACGGUGCCAUCUCCUGCCACGACAUGUUUGAUUUUCUUCAUCUCACAGGAGGGGGCUAUGCAAAGAUCUGCAAACCCCUCCAUGAACUGAUCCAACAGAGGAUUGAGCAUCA,0.156
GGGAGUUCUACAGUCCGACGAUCAUUUUCCUGUGCUCAAUGUGUAAAUUGUAUCAUAACUCAUUGUGGUUGAUUUCACUUUGAUUUAGUGGCAUCUUAAUAAAUGGGGGUGUUACUGAAUCACUCUUCCCACUUCCAUUUCUUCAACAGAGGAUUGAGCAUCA,0.203
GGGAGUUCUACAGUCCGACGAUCAUUCAUCGAAGCACACAUCCAGGAGAAAAACCCUAUAAAUGUAGUGAGUGUAGAAAAGCUUUCUUUUGGAAUUCACAACUCAUUACUCAUCGGAGGUCACAUAGAGGGAAGAAACCUUAUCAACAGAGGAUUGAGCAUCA,0.356
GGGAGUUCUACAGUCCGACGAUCGGAAUGGAUGCCCUUCCUUACAUUGACCUUAUCGACCCAGCUGAGAUCGACCUUCUGUUGAUCAGUCAUUUCCAUUUGGAUCACUGUGGAGCCCUGCCCUGGUUCCUUCAGAAGACAAGUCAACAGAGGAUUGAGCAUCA,0.157
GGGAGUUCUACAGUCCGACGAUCUAAUUUUGGCAGGAGUUAGAAUAAAUCCUUGGAGCCUGGGCCCCUCUGUCCUUGGCCCUCCAUAGCCUUCUCGCUAGAGGGGGAAAGAAGGUUCUCGGGCCGGCCCCACUACCAAGCAUACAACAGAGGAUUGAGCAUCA,0.159
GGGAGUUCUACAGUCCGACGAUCGACUCCACAGAUUGUGAGUGUGUGAGUGUGUGUGUGAGUGAGAGAAAAAGAGAGAGAUGGUUAGUCUGUUUAACCUGUCUGUCUAUCUGUCAUUUCUUCCUCUGGACCUGGGGCAGCCAACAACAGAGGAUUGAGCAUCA,0.304
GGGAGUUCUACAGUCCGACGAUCUUUGAAUCCCUGCAGAAGAAAACCAAGAUUGCACUGGAACAUCCAAUGUUGACAGAUAUGCAUGACAAAUUGGUGUUAAAGGGUGACUUUGAUGCUUGCGAGGAGUUGAUUGAAAAAGCUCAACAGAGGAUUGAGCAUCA,0.226
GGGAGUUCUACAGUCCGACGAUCGAGAUCGAUUGCACCAUGCUCACCCCUGAGCCAGUUUUAAAGACCUCUGGCCAUGUAGACAAAUUUGCUGACUUCAUGGUGAAAGACGUAAAAAAUGGAGAAUGUUUUCGUGCUGACCAUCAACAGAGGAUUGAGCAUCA,0.154
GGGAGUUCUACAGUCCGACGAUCCAGCCUUAAGCACAAUUAAUUAAGAGUGAAACGUAAUUGUACAAGCAGUUGGUCACCCACCAUAGGGCAUGAUCAACACCGCAACCUUUCCUUUUUCCCCCAGUGAUUCUGAAAAACCCCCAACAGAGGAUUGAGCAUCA,0.299
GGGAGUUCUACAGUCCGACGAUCGGCUCCAGGAGCUGUCCUUGAACUUGGAGAAGGAUUUGGGUAAGAAUGCCAGUCCUAGAGUUAGUAGCACGAGGCUUUGUGCCUUGCCCCCAUUGAUGUCUGAUAUUGCUGCAAUCCAGGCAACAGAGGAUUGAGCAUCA,1.32
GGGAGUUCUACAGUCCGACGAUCGUUGCUGAGUAUGACGCCUACUUUGAGGAGGUAAAACAGGAGAUAAAUCAGAGGCUGACACUGAGUGACUUCCUCAUCAAGCCCAUUCAGAGAAUAACAAAAUACCAGUUGCUCCUCAAGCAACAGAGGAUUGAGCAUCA,0.217

# Study 5 — technique: protein binding microarray; form: double-stranded DNA, one strand shown; sample: in vitro; tested at: not given; relative to: not given; direction: higher = stronger binding
# Target: Histone acetyltransferase KAT6A, both winged helices, GST fusion (KAT6A, Homo sapiens, UniProt Q92794, residues 1-181)
# Setting: 8-mer, flanks averaged, mean of 2 arrays, mostly near background
# Construct (chain): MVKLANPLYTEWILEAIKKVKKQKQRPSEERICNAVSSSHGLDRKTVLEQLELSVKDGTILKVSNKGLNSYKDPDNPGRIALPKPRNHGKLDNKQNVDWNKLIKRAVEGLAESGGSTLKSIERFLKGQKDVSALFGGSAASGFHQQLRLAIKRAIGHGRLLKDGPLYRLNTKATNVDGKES
Oligonucleotide,E-score
ACAGGGAG,-0.0814
CCCTGCAA,-0.0718
CGAGACAG,-0.0681
ACGGGACA,0.26
AGCTAACT,-0.218
GACTGCAA,-0.129
CAAACACC,0.0406
ACGTACCG,0.0643
CACGGATC,0.201
AATTCGGT,0.1
AAGAGACC,-0.029
GGGACCCC,0.0372
ACCATGCT,-0.151
CAGGGCAG,-0.0946
ACCCGACC,0.0762
ACCTACAC,-0.248
CCACCTGG,-0.293
AAGCTTCC,0.0198
CCAAAAGG,-0.127
GGGCGCAC,0.134
ACTATCCT,-0.216
ACGATGCT,-0.0822
CACGGGAC,0.207

# For quick reference, copied from above (study 5):
Oligonucleotide,E-score
ACCCGACC,0.0762
CACGGGAC,0.207
AAGAGACC,-0.029
CCCTGCAA,-0.0718
CAAACACC,0.0406
AAGCTTCC,0.0198
ACGATGCT,-0.0822
CAGGGCAG,-0.0946
